Results pooled from the literature.
A part holds a random share of what one study measured. Changes are numbered by the printed parent chain.

Block 1
Target: Fragile X messenger ribonucleoprotein 1, C-terminal low-complexity region (Fmr1, Mus musculus, UniProt P35922)
Technique: RNA Bind-n-Seq
Form: RNA
Matrix: in vitro
Tested at: 200 nM
Setting: whole 134-nt RNA, ends assumed
Together with: 150 mM LiCl
Baseline: input library
Direction: higher = stronger binding
Quantity: log2 enrichment
All molecules: 7-deaza-guanosine replaces G
Shared flanks, not repeated: GGGAGUUCUACAGUCCGACGAUC … UGGAAUUCUCGGGUGUCAAGG
UAACUUUAGAGGAGGAUCUGAUGGAUAUGGCAGUGGACGUGGAUUUGGGGAUGGCUAUAAUGGGUAUGGAGGAGGACCUGUAGGUGGCAA: 0.242
UGGGAGGUGGAUUUUGUUUAUUUUUUUAGCUCAUUUCCAGGGGUGGGAAUUUUUUUUUAAUAUGUGUCAUGAAUAAAGUUGUUUUUGACA: -0.299
GCAGGAAGUAAAAACAAAUGGAAAUGCUUCGGAUAGUGGCAGGAGUGGGGGUUGCUAAGGAAAGGGUGGGAUGGGAGUGGGUAAAGAGUU: 1.7
UCCUGUGCUACACAUCGUAUGUACCGAAUCGGGUUUUUGGGAAAAAGGGAAAAAAAGGGAAAGUAUUAUGUUACGCCGUUCGGAUCUGCA: -0.794
UCAAGUCCUGUGCUACACAUCGUAUGUACCGAAUCGGUUUUUGGAGGUUUUUGGAAAGUAUUAUGUUACGCCGUUCGGAUCUGCACUUCC: -0.749
GUCCUGUGCUACACAUCGUAUGUACCGAAUCGGGAAAAGGGGAAAAGGGGAAAAGGGGAAAGUAUUAUGUUACGCCGUUCGGAUCUGCAC: 0.923
GUCCUGUGCUACACAUCGUAUGUACCGAAUCGGGUUUUUGGGAAAAAAAGGGUUUGGGAAAGUAUUAUGUUACGCCGUUCGGAUCUGCAC: -2.88
UCAAGUCCUGUGCUACACAUCGUAUGUACCGAAUCGGGCCCGGGCCCGGCCCGGAAAGUAUUAUGUUACGCCGUUCGGAUCUGCACUUCC: -1.87

Block 2
Target: RING finger protein unkempt homolog, zinc fingers 1-6, SBP tag (UNK, Homo sapiens, UniProt Q9C0B0, residues 30-357)
Sequence of UniProt Q9C0B0 (30-357, looked up): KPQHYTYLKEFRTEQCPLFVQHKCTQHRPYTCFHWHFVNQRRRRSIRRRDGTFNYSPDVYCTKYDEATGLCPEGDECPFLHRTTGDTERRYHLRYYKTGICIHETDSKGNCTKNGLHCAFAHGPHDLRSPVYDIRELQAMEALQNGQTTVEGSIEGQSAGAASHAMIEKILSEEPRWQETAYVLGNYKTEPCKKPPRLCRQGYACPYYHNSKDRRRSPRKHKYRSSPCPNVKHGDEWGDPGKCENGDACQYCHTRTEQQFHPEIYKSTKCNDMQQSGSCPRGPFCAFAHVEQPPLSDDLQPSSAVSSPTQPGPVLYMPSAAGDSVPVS
Technique: RNA Bind-n-Seq
Form: RNA
Matrix: in vitro
Tested at: 100 nM
Setting: RNA with constant flanks, vertebrate orthologous sites, ends assumed
Baseline: input RNA pool
Direction: higher = stronger binding
Quantity: bound/input enrichment
Shared flanks, not repeated: GGGAGUUCUACAGUCCGACGAUC … CAACAGAGGAUUGAGCAUCA
UACUAGUGUCACACCAGCAUACUCACUGCUCCUUUGUACACAGCUUCCAAUCAACACUCUAGUUGUAUUUUUUUAAUUUAAACUAUGAAAUACUGCUUUUCCCAAGACUUUGAAAAAGAU: 0.969 ratio
AAAUAUGUAAUCAUUUGAUUAAAAUUGGAUAAGAAAUUACUGUUCAUUUUCCCUUUCAAACAAGCUUAUCCUGUUUUUAAUCUAUUUUUCAAAAUAUCGGUUGUGUAUGGUUGCUUGACA: 0.423 ratio
AGCCAUUUUUUUCCACGUUUUCUGUAAAUAAUGGAUAAUCAUUUUUAAAAAUUUUAUUUUUAGUGCUGUUUUAGCAAUGUGGAUAGAUCAUAAAUGUACUUGCUGAAUUCAAUCAUUUUU: 0.398 ratio
UUCAUUAUUUGACCAGAGUUGAGGUGACAGAAUUUGAAGACAUCAAAUCAGGUUACAGAAUAGAUUUUUAUUUUGAUGAGAAUCCCUACUUUGAAAAUAAAGUUCUCUCCAAAGAGUUUC: 0.583 ratio
AAACCCCGAUUUUAGAUGUGAUAUCUAGGCUUUCAUUCCAGUUUGUUUUUGUCUUUUGUUUAGAUACCAAUCUUUUAAAUUCUUGCAUUUUAGUAAGAAAGCUACCUUUUUAUGGAUGUU: 0.742 ratio
GGAAUACUGAAAAGACUUCCAUGCUUACGUUAAAUGCUAAAGUUAAGCUGCAGUAUAUUAGUAAAUAAUUACUUUAUUUCUGCAGUAUGGUUUGCUUAUGUUUAAAGUCAGACAGUAGAC: 0.57 ratio
AGCAACUCAAGGAUUGAGGACUGGUUUUACAAAUAUACCAAGUAGAUAUGGAACUAAUAAUAGAAUUGGACAACCAAGACCAUGAUGGACUCUUACUUAUUUUUAUGAGGAAUAUUGACU: 0.482 ratio
UUUCUUUAUUUUUAUCUUCCCUUUAUUUUCUUUCUUUCUUUUUCUUUCUUUCUUUUUUUUCUAAUGUUGUUACCCACGCCAUUUUACGUCUCCUUCACUGAAGGGCUAGAGUUUUAACUU: 9.27 ratio

Block 3
Target: ABI1, truncated, D143A, DHFR fusion (Arabidopsis thaliana)
Technique: DHFR PCA, deep sequencing
Matrix: yeast
Setting: methotrexate growth selection, single substitutions
Together with: (+)-ABA 0 µM
Baseline: wild-type fitted maximum
Direction: higher = stronger binding
Quantity: relative binding score
Parent: PYL1, truncated, DHFR fusion (Arabidopsis thaliana); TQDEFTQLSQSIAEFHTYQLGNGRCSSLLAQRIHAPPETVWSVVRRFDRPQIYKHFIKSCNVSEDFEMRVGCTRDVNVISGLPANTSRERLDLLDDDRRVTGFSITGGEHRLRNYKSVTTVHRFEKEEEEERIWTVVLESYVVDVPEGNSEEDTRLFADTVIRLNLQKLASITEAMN
D48C: -4%
M68I: 30.7%
A13I: 8.59%
E127C: 27.2%
L156K: -5.09%
V40F: -7.21%
S104R: 0.582%
R98T: -7.56%
I33G: -2.06%
D95G: -8%
R46P: 2.61%
C72E: 12.2%
D97R: 13.7%
R88N: 11.2%
R123K: 54.7%
S63A: 46.1%
D3Y: 41.4%
E38S: 4.48%
F15P: 4.32%
E4Y: 18.3%
P36M: 3.03%
E174D: -0.558%
V44W: 2.76%
F47M: -7.76%
Q10C: 4.01%

Block 4
Target: CCNA2, cyclin fold, Cln2 fusion (human)
Technique: yeast growth competition, sequencing
Matrix: yeast
Setting: strong parent motif
Baseline: not given
Direction: higher = stronger binding
Quantity: normalised enrichment score
Parent: E2F1 docking peptide (human); PPVKRRLDLETDH
PPVKRRLDLETDN [H13N]: 4.34
PPVKRRLDLEIDH [T11I]: 3.12
PPHKRRLDLETDH [V3H]: 0.598
PPVKRRYDLETDH [L7Y]: -0.347
PPVKRRPDLETDH [L7P]: -0.361
PPVKRRLDLNTDH [E10N]: 4.93
PPVKRRLDLETPH [D12P]: 5.6
PPPKRRLDLETDH [V3P]: 2.02
PPDKRRLDLETDH [V3D]: 0.48
KPVKRRLDLETDH [P1K]: 6.14
PPVKNRLDLETDH [R5N]: 0.629
PPVKRRGDLETDH [L7G]: 0.224
PPVKRRLSLETDH [D8S]: 3.7
PIVKRRLDLETDH [P2I]: 2.3
PPIKRRLDLETDH [V3I]: 1.07
PPVKRPLDLETDH [R6P]: 0.326
PPVKRRLDLEPDH [T11P]: 5.45
PFVKRRLDLETDH [P2F]: 3.18
PPVKARLDLETDH [R5A]: -0.432
PVVKRRLDLETDH [P2V]: 2.67
PPVKRRLDLETDE [H13E]: 3.91
IPVKRRLDLETDH [P1I]: 4.11
PPVKRRLDLELDH [T11L]: 4.52
PPVKRRLDLETRH [D12R]: 3.55
PPVKRRLDLETSH [D12S]: 4.53

Other studies, line by line
PhoQ, residues 284 288 289 292 302 303 SASVAL
fold induction (PhoP, residues 12 14 15 18 19 VQALL (Escherichia coli, UniProt P23836); Sort-seq, measured: YFP reporter; E. coli; PhoQ-PhoP variant library, together with: 10 µM Mg2+; baseline: high Mg2+ state, higher = stronger signaling): 11.1

Some of these lines once more (block 3):
E38S: 4.48%
F15P: 4.32%
E4Y: 18.3%
P36M: 3.03%
E174D: -0.558%
V44W: 2.76%
